Measured values from different studies.
Protocols differ between the studies behind these lines. Several values in a cell are separate wells, animals, samples, runs or records. ± gives the spread as reported.
Urease: Urease (Canavalia ensiformis, UniProt P07374)
gyrA/gyrB: DNA gyrase (gyrA/gyrB, Escherichia coli, UniProt P0AES4+P0AES6)

SMILES | target | assay | test system | setting | IC50
CC[C@H](C)[C@H](NC(=O)[C@H](CCCNC(=N)N)NC(=O)[C@@H](NC(=O)[C@H](CO)NC(=O)[C@H](CS)NC(=O)[C@H](CCCNC(=N)N)NC(=O)[C@H](CCCNC(=N)N)NC(=O)[C@H](CCCNC(=N)N)NC(=O)[C@H](CCC(N)=O)NC(=O)[C@H](CCCNC(=N)N)NC(=O)[C@H](CCCNC(=N)N)NC(=O)[C@H](CCCCN)NC(=O)[C@H](CCCCN)NC(=O)[C@@H](N)CCCNC(=N)N)[C@@H](C)O)C(=O)N[C@@H](CCCNC(=N)N)C(=O)N[C@@H](CCCNC(=N)N)C(=O)N[C@@H](CCC(N)=O)C(=O)N[C@@H](CC(C)C)C(N)=O | NADPH oxidase 2 (CYBB, Homo sapiens, UniProt P04839) | enzyme activity, inhibitor |  |  | 10.3 µM
N=C(N)NCCC[C@@H]1NC(=O)[C@H](CCCCNC(=O)CNC(=O)CNC(=O)CNC(=O)CC[C@H](NC(=O)CCOCCOCCOCCOCCNC(=O)CC[C@H](NC(=O)CN2CCN(CC(=O)O)CCN(CC(=O)O)CCN(CC(=O)O)CC2)C(=O)NCCOCCOCCOCCOCCC(=O)N[C@@H](CCC(=O)NCC(=O)NCC(=O)NCC(=O)NCCCC[C@@H]2NC(=O)[C@@H](Cc3ccccc3)NC(=O)[C@H](CC(=O)O)NC(=O)CNC(=O)[C@H](CCCNC(=N)N)NC2=O)C(=O)NCC(=O)NCC(=O)NCC(=O)NCCCC[C@@H]2NC(=O)[C@@H](Cc3ccccc3)NC(=O)[C@H](CC(=O)O)NC(=O)CNC(=O)[C@H](CCCNC(=N)N)NC2=O)C(=O)NCC(=O)NCC(=O)NCC(=O)NCCCC[C@@H]2NC(=O)[C@@H](Cc3ccccc3)NC(=O)[C@H](CC(=O)O)NC(=O)CNC(=O)[C@H](CCCNC(=N)N)NC2=O)NC(=O)[C@@H](Cc2ccccc2)NC(=O)[C@H](CC(=O)O)NC(=O)CNC1=O | Integrin alpha-V/beta-3 (Homo sapiens, UniProt P05106+P06756) | ligand displacement, radioligand |  |  | 0.0002 µM
CC(=O)CCC1C(=O)NC(C(C)C)C(=O)NC(Cc2cc(O)cc(F)c2)C(=O)N2CCCC(N2)C(=O)OC(C(C)=CC=CC(=O)N2CCCCO2)CC=CC=CC(O)C(C)C1O (centres unmarked) | Solute carrier organic anion transporter family member 1B1 (SLCO1B1, Homo sapiens, UniProt Q9Y6L6) | transporter uptake, inhibitor | CHO | pH 7.3 | 4.31 µM
CC(C)[C@H](NC(=O)c1ccc(CNc2nc3c(c(=O)[nH]2)CCC3)cc1)C(=O)NC1CNC1 | Interstitial collagenase (MMP1, Homo sapiens, UniProt P03956) | enzyme activity, inhibitor |  |  | > 5 µM
CC[C@@H]1C(=O)N(C)c2cnc(Nc3ccc(C(=O)NCCCC[C@H](NC(=O)COCCOCCNC(=O)COCCOCCNC(=O)COCCOCCNC(=O)COCCOCCNC(=O)[C@@H](NC(=O)[C@H](CO)NC(=O)[C@H](Cc4cncn4CCCCCCCCc4ccccc4)NC(=O)[C@H](CC(C)C)NC(=O)[C@@H]4CCCN4C(C)=O)[C@@H](C)OP(=O)(O)O)C(N)=O)cc3OC)nc2N1C1CCCC1 | Serine/threonine-protein kinase PLK2 (PLK2, Homo sapiens, UniProt Q9NYY3) | enzyme activity, inhibitor |  |  | 0.0016 µM
COc1c(OCCOCCOCCOCCOc2cccc(C(=O)C3CCN(CCc4ccc(F)cc4)CC3)c2OC)cccc1C(=O)C1CCN(CCc2ccc(F)cc2)CC1 | 5-hydroxytryptamine receptor 2A (HTR2A, Homo sapiens, UniProt P28223) | phosphorylation in cells, antagonist |  |  | 0.178 µM
C#CCC[C@](C)(O)[C@H]1CC[C@H]2[C@@H]3CC=C4C[C@@H](O)CC[C@]4(C)[C@H]3CC[C@@]21C | Protein smoothened (Smo, Mus musculus, UniProt P56726) | cell-free assay |  |  | 1.3 µM
CCCC[C@H](NC(=O)[C@H](C)NC(=O)[C@H](CCC(=O)O)NC(=O)[C@H](Cc1ccccc1)NC[C@H](C)NC(=O)[C@@H](NC(=O)[C@@H](N)CCCNC(=N)N)C(C)C)C(=O)O | Gag-Pol polyprotein, protease (gag-pol, Human immunodeficiency virus 1, UniProt P12497) | enzyme activity, inhibitor, FRET | NL4-3 wild type |  | > 1 µM
O=C1C=CC(=O)C(c2cc(Cl)ccc2Cl)=C1 | Tyrosine-protein phosphatase non-receptor type 11 (PTPN11, Homo sapiens, UniProt Q06124) | enzyme activity, inhibitor |  |  | ~0.1 µg/mL and 0.1 µg/mL
NC(=O)CCC1CCCN(C(=O)c2c[nH]n3c2nc(=O)c2ccccc23)C1 (centres unmarked) | Procathepsin L (CTSL, Homo sapiens, UniProt P07711) | enzyme activity, inhibitor, FRET |  |  | > 100 µM
CCCC[C@H](NC(=O)[C@H](CC(C)C)NC(=O)[C@H](Cc1c[nH]cn1)NC(=O)CNC(=O)[C@@H](NC(=O)[C@H](C)NC(=O)[C@H](Cc1c[nH]c2ccccc12)NC(=O)[C@H](CCC(N)=O)NC(=O)[C@H](CC(N)=O)NC(=O)CNC(=O)[C@H](Cc1ccc(O)cc1)NC(=O)[C@H](CCCNC(=N)N)NC(=O)[C@H](CCC(N)=O)NC(=O)[C@@H]1CCC(=O)N1)C(C)C)C(N)=O | Neuromedin-B receptor (NMBR, Homo sapiens, UniProt P28336) | NMBR activity, cell-based |  |  | 0.0054 to 0.042 µM
CC1(C)OC2OC(C(CCO)NC(=O)Nc3cccc(NC(=O)NC(CCO)C4OC5OC(C)(C)OC5C4OCc4ccccc4)c3)C(OCc3ccccc3)C2O1 (centres unmarked) | DNA ligase 1 (Homo sapiens, UniProt P18858) | enzyme activity, inhibitor, radiometric |  |  | 380 µM
CCCCCc1cc(O)c2c(c1)OC(C)(C)C1CCC(C(=O)OC3OC(C(=O)O)C(O)C(O)C3O)=CC21 (centres unmarked) | Cytochrome P450 2B6 (CYP2B6, Homo sapiens, UniProt P20813) | inhibitor | HEK cell microsomes | 30 min preincubation with NADPH | 4.1 ± 1 µM
CC(=O)N[C@@H](CC(C)C)C(=O)N[C@@H](CCC(=O)O)C(=O)N[C@@H](CO)C(=O)N[C@@H](CC(=O)O)C(=O)CCl | Caspase-1 (CASP1, Homo sapiens, UniProt P29466) | enzyme activity, inhibitor, fluorescence |  |  | 5.67 µM
Cc1cc(C)c(C(=O)N(C)Cc2nnc[nH]2)[nH]1 | Urease | enzyme activity, inhibitor, absorbance |  |  | 14.3 µM
COc1ccc2nc(C)cc(OCC(=O)Nc3cc(C)cc(C)c3)c2c1 | Cytochrome P450 2D6 (CYP2D6, Homo sapiens, UniProt P10635) | inhibitor |  |  | 4.6 µM
CC(C)(C)c1ccc(NC(=O)NCCC[C@H](CNCc2ccccc2)C[C@H]2O[C@@H](n3cnc4c(N)ncnc43)[C@H](O)[C@@H]2O)cc1 | RNA demethylase ALKBH5 (Homo sapiens, UniProt Q6P6C2) | RNA demethylase activity, inhibitor |  |  | > 50 µM
CC(C)C[C@@H]1NC(=O)[C@H](C(C)C)NC(=O)[C@H](C)NC(=O)[C@H](Cc2ccc(O)cc2)NC(=O)[C@H](CCC(N)=O)NC(=O)[C@H](CC(C)C)NC(=O)[C@@H](Cc2ccc(O)cc2)NC(=O)CSC[C@@H](C(N)=O)NC(=O)[C@H](CCC(=O)O)NC(=O)[C@H](CCCNC(=N)N)NC(=O)[C@H](CCCNC(=N)N)NC(=O)[C@H](CCCCN)NC(=O)[C@H](Cc2c[nH]cn2)NC(=O)[C@H](CCCNC(=N)N)NC1=O | Furin (FURIN, Homo sapiens, UniProt P09958) | enzyme activity, inhibitor |  |  | > 10 µM
CC(C)C[C@H](NC(=O)[C@H](Cc1ccc(O)cc1)NC(=O)[C@H](CO)NC(=O)[C@@H](N)CCC(N)=O)C(=O)N[C@@H](C)C(=O)N[C@H](C(=O)N1CCC[C@H]1C(=O)N[C@H](C(=O)N[C@@H](CO)C(=O)N[C@@H](Cc1ccc(O)cc1)C(=O)N[C@@H](Cc1c[nH]cn1)C(=O)N[C@@H](CC(C)C)C(=O)N[C@@H](CCC(N)=O)C(=O)N[C@@H](CCC(N)=O)C(=O)N[C@@H](CO)C(=O)O)[C@@H](C)O)C(C)C | Ppp3r1/Ppp3ca (Rattus norvegicus, UniProt P63100+P63329) | phosphatase activity, inhibitor |  | 30 min, 37 °C, together with: RII phosphopeptide | 190 µM

SMILES | target | assay | test system | setting | IC50
CN(C)CCCOc1ccc(C2Sc3ccccc3NC3=C2C(=O)c2ccccc23)cc1 (racemic) | Type II NADH dehydrogenase (Plasmodium falciparum, UniProt Q8I302) | enzyme activity, inhibitor |  |  | > 20 µM
CSCC[C@H](NC(=O)[C@H](Cc1ccccc1)NC(=O)[C@H](Cc1cnc[nH]1)NC(=O)CNC(=O)[C@@H](NC(=O)[C@H](C)NC(=O)[C@H](Cc1c[nH]c2ccccc12)NC(=O)[C@H](CC(C)C)NC(=O)[C@H](CC(N)=O)NC(=O)CN)[C@@H](C)O)C(N)=O | Gastrin-releasing peptide receptor (Mus musculus, UniProt P21729) |  | cells, mouse |  | 0.052 ± 0.002 µM
N#Cc1cn([C@@H]2O[C@H](CSCC[C@H](N)C(=O)O)[C@@H](O)[C@H]2O)c2ncnc(N)c12 | Protein arginine N-methyltransferase 7 (PRMT7, Homo sapiens, UniProt Q9NVM4) | enzyme activity, inhibitor, radiometric |  |  | 0.3 µM
CC1C(=NOCc2cc(-c3ccc(Cl)cc3)no2)C(C)C(c2ccc(Br)cc2)OC1c1ccc(Br)cc1 (centres unmarked) | gyrA/gyrB |  |  |  | 13 µM
C[C@@H](O)[C@@H]1NC(=O)[C@H](CC(=O)O)NC(=O)CNC(=O)[C@H](CCC(N)=O)NC(=O)[C@@H]2CCCN2C(=O)[C@H](Cc2cnc[nH]2)NC(=O)[C@@H](N)CSSC[C@@H](C(=O)NCC(N)=O)NC1=O | Streptavidin (Streptomyces avidinii, UniProt P22629) |  |  |  | 25.6 µM
O=C1c2ccccc2[Se](=O)N1c1ccccc1 (centres unmarked) | Polyamine deacetylase HDAC10 (HDAC10, Homo sapiens, UniProt Q969S8) | enzyme activity, inhibitor, fluorescence |  |  | > 10 µM
O=C(CCCCCCC(=O)Nc1ccccc1N=Nc1ccccc1)NO | Histone deacetylase 1 (HDAC1, Homo sapiens, UniProt Q13547) | enzyme activity, inhibitor |  | trans isomer | 0.013 ± 0.003 µM
Nc1nc2c(c(=O)[nH]1)[n+](Cc1ccc(S(=O)(=O)F)cc1)cn2[C@@H]1O[C@H](COP(=O)(O)O)[C@@H](O)[C@H]1O | 7-methylguanosine phosphate-specific 5'-nucleotidase (NT5C3B, Homo sapiens, UniProt Q969T7) | m7GMP dephosphorylation, inhibitor, malachite green |  | 1 h preincubation, pH 7.5, 30 °C, together with: m7GMP 100 µM | 0.067 ± 0.011 µM
O=C(/C=C/C=C/c1ccc2c(c1)OCO2)NC(Cc1c[nH]c2ccccc12)C(=O)O (centres unmarked) | Peroxisome proliferator-activated receptor gamma (PPARG, Homo sapiens, UniProt P37231) | ligand displacement, FP |  |  | 1.03 µM
C/C=C1/CN2CCc3c([nH]c4ccccc34)[C@@H]2C[C@@H]1/C(=C\OC)C(=O)OC | 5-hydroxytryptamine receptor 2C (HTR2C, Homo sapiens, UniProt P28335) | GTPγS binding, antagonist, radiometric |  |  | 6.19 µM
N=C(N)NCCC[C@H](N)C(=O)N1CCC[C@H]1C(=O)N1CCC[C@H]1C(=O)NCC(=O)N[C@@H](Cc1ccccc1)C(=O)N[C@@H](CO)C(=O)N1CCC[C@H]1C(=O)N[C@@H](Cc1ccccc1)C(=O)N[C@@H](CCCCN)C(=O)O | B2 bradykinin receptor (BDKRB2, Homo sapiens, UniProt P30411) |  |  |  | 0.0016 µM
CC(=O)N[C@H]1[C@H](OC[C@H](NC(=O)[C@H](C)NC(=O)[C@@H](N)Cc2ccccc2)C(=O)NCC(=O)N[C@@H](CC(N)=O)C(=O)N[C@@H](Cc2ccc(O)cc2)C(=O)N[C@@H](CO)C(=O)N[C@@H](C)C(=O)N[C@@H](CC(C)C)C(=O)O)O[C@H](CO)[C@@H](O)[C@@H]1O | Antigen peptide transporter 1/Antigen peptide transporter 2 (Homo sapiens, UniProt Q03518+Q03519) | peptide translocation, competitor | permeabilized LCL721 cells | together with: iodinated peptide | 8 µM
CC[C@H](C)[C@H](N)C(=O)N[C@@H](Cc1c[nH]cn1)C(=O)N[C@@H](CC(C)C)C(=O)N[C@@H](C)C(=O)N[C@@H](C)C(=O)N[C@@H](Cc1ccccc1)C(=O)N[C@@H](CC(=O)O)C(=O)N[C@@H](CS)C(=O)N[C@@H](Cc1ccccc1)C(=O)O | DNA dC->dU-editing enzyme APOBEC-3G (APOBEC3G, Homo sapiens, UniProt Q9HC16) |  |  |  | > 100 µM
CNCP(C)(=O)O | Urease | enzyme activity, inhibitor, absorbance |  | pH 7 | 884 µM
O=C1C(O)=C(Nc2ccc(F)cc2)C(=O)c2ccccc21 | Dihydroorotate dehydrogenase (quinone), mitochondrial (DHODH, Homo sapiens, UniProt Q02127) | enzyme activity, inhibitor, absorbance |  |  | 0.47 µM
C[C@H](CCC(=O)N[C@H](CC(c1c[nH]c2ccc(Cl)cc12)c1c[nH]c2ccc(Cl)cc12)C(=O)O)[C@H]1CC[C@H]2[C@@H]3CC[C@@H]4C[C@H](O)CC[C@]4(C)[C@H]3CC[C@]12C | Beta-galactoside alpha-2,6-sialyltransferase 1 (ST6GAL1, Homo sapiens, UniProt P15907) | enzyme activity, UPLC |  |  | 6.6 ± 0.2 µM
CC(=O)OCc1cc(-c2nc3ccccc3n(-c3ccc([N+](=O)[O-])cc3[N+](=O)[O-])c2=O)nn1-c1ccccc1 | gyrA/gyrB | enzyme activity, inhibitor |  |  | 0.869 µM
C=CCN1CCc2cccc3c2[C@H]1Cc1ccc(O)c(O)c1-3 | Carbamate kinase (Giardia intestinalis, UniProt A8BB85) | enzyme activity, ATP luminescence |  |  | 3.66 µM
O=C1c2ccc(O)c(O)c2C(=O)N1Cc1cccc(Cl)c1F | Gag-Pol polyprotein, integrase (gag-pol, Human immunodeficiency virus 1, UniProt P12497) | strand transfer, inhibitor, gel-based |  | recombinant wild-type integrase | 0.9 ± 0.2 µM
